# Published values from different studies.
# Every numbered part comes from another study and shows a few of its results, in no order.

# Series 1 — technique: EMSA with sequencing; form: double-stranded DNA, one strand shown; matrix: in vitro; tested at: 10 and 20 nM; relative to: negative control set to 0; reading: higher = stronger binding
# Target: Hepatocyte nuclear factor 3-alpha (Foxa1, Mus musculus, UniProt P35582, residues 1-468, full length assumed)
# Notes: whole designed probe, mean of two concentrations, ends assumed
# Residues (chain): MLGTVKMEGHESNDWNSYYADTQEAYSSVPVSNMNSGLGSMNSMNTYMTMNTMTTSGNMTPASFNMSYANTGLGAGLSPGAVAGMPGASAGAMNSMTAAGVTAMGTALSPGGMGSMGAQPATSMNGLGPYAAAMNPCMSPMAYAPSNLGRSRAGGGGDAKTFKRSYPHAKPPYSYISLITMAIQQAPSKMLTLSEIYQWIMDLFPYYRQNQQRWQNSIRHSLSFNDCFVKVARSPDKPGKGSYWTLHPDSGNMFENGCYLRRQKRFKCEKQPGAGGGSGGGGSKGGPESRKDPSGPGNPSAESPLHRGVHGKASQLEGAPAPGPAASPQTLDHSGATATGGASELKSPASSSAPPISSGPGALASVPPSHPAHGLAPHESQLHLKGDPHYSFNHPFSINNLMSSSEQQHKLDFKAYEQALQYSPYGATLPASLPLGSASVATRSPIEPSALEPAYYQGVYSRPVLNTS
Strand,normalised bound fraction
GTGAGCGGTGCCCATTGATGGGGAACACAGCCAAAAATAAAATTGATTTGGAATGTGATTTACCCAGATAAATCATCAGCTCAAGGGACTGCTTGGAGAGAAGGAGAGCTGACCTATGCCTGTTGACTCACCATGTAAACACAGTCATGGTAATTTACTAGCAGCAAGACCTGTTTCCTGCTGAGCAGTTCCAGTCTGAGCTCCAGAGCTAGACGCAGATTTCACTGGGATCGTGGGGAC,0.145 ratio
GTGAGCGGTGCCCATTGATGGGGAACTACCAAAAATATCTAGAATGGAATGACATCTCCTCTAAGGCAGGGGATAATTAACTTGTCCCCACAAAGTATAAATAATCTCTTTCTTCACAAAGTAAACATGTTTTTCTGACACTATCTGACATTTCCATCCAGTGTGCTTTTGAAACTGTATGCTCTTGTTTTTGTTTTTTATTTTTGTTTTTTTTGTTCATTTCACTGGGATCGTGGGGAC,0.417 ratio
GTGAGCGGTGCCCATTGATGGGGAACGGCTGCTTCTCCCTTTTGGCTGTTGTGCATATTGCTGCTATGAACATGGGTGTGCAAATACCTCTTTGAGTCACTGCTTTCACTTCTTTTTAGTATTTACTCAGCAGTGGAATTGCTGAGTCATGTGATAATTCTGTGTTTAATTTTTTTTGAGGAAACTCCATACTGTTCTCATGGTGGCTGCACCATTTAATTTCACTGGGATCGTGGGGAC,0.358 ratio
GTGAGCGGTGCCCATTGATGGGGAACATCTTCCCCCTCTTCCTTGCCCCACCAGCTCACCTTCCCGGGTTATTTGCAGATAGGAAAATAAATAAAGCCGGCATTCGTTAACCCTCTTCACGCGCATACTGCTGTTTGCTCTGGATCTAACATGGTCCTTTGGGATGAATCATGTCCGGGAGAGCAAAGCACCGTGTCAGGGCCATGATCCGGGGTGGCCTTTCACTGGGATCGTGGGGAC,0.349 ratio
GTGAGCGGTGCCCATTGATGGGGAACGTGTGCTAGCCTGTGAGTTTTTCTCTCCAACTAGCCTGGGTACTCAGGAAAGTGAGATCAACTTCTGGGTGGCCTTGCGTCTAGCTGACCTGTGCAAATAGGGGAGACAGTTGACATACAGATGAAAGGGGAGATGGGAAGCCATACAGAGGAAGGAGAAGATCAGGAACCAGAGATAAGATAATTCTGTAAATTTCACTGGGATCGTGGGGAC,0.181 ratio

# Series 2 — technique: RNA Bind-n-Seq; form: RNA; matrix: in vitro; tested at: 365 nM; relative to: no-protein control; reading: higher = stronger binding
# Target: RNA binding protein fox-1 homolog 2, RRM domain, GST-SBP tag (RBFOX2, Homo sapiens, UniProt O43251-10, residues 100-194)
# Notes: natural RNA segment, single round, ends assumed
# Residues (chain): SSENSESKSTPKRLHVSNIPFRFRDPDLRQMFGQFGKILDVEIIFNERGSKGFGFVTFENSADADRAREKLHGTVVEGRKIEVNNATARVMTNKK
Strand,RBNS enrichment (R)
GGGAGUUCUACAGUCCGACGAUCUCCACCCCUGUUGAUGAUCAUUCCUGGGAAGGGGUUUCUCGUUCUAUGCAAUCCUAAAGGACGAAACUCACCCAUGGGAGGCCGAAUUCUCCUUGGGAUGAAGAAAUUUCUGGAAUUCUCGGGUGCCAA,0.35
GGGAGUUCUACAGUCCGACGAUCACUUUAGAGCUAGGAUGAGGGCACCUCUCCUCCUCCAUGGAUCACCAAGGGGGCUCUUGCAUUGAGCAAUAUUGCCUUAUUUACUUUAGGGCACAAGCCAAGUCUUCAUGUGGAAUUCUCGGGUGCCAA,0.271
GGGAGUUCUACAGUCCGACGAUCCUUUUAAAAUUUUAAGAUAGGAAAGAAAUCUAUAGAAAGUGUUCUGUUACAAAAUGUAACUGUUACCAUUGGAAAUUUCACAUGUCAAAGGAGGUUAGCCGUUAUUUACCUGGAAUUCUCGGGUGCCAA,0.362
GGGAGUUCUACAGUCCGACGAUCUUGCCUUAUGCUGAGGUCAAACUAAGGAUAAGCAAGCUUUUGUCCUUCAUUUUAACUGUUAUGUCAUACUGUUAUGUUGACAUAUUUCUUUAUAAGAGAAUAGAGGCAAAUGGAAUUCUCGGGUGCCAA,1.07
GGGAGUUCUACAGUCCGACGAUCGCCAUUUAGAAAAUCUUUUGGAUUUUCCUGUGGUUUAUGGCAAUAUGAAUGGAGCUUAUUACUGGGGUGAGGGACAGCUUACUCCAUUUGACCAGAUUGUUUGGCUAACAUGGAAUUCUCGGGUGCCAA,0.675
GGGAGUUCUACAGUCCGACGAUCUAAAGAGAGUUUUUUGGGGCCACCAAAUAUUUUGGAUCAUGCAGAGAAUAUAUAUUGUACUGUAGUAAUUUUGUAUUUACAUUUGUAUGAUGUGACAUAAUAGAUGUGAAUGGAAUUCUCGGGUGCCAA,0.617
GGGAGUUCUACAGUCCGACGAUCGAUUCUCAGGGAGCCCUCUGUGGCCUUUUGCUUUGCGUGCUGUUUCCCUUGUACCAGAGGGCGGCACCGUGGAAAUUCUGUUUUCCCUGUAGCAUAUUGUGUUGGAUUGCUGGAAUUCUCGGGUGCCAA,0.383
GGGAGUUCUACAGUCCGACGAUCGAGGGAAGUUUGGCUAAUGGGCUGAUCGAAUGAGCUAACAUGGGCUGGGGCAGGCAACUACCCGUCCUCAAGCCCGCUGUUUCUGUCUCCCUACCAGACAGGCCUCUGGGUGGAAUUCUCGGGUGCCAA,0.299

# Series 3 — technique: protein binding microarray; form: double-stranded DNA, one strand shown; matrix: in vitro; tested at: not given; relative to: not given; reading: higher = stronger binding
# Target: Histone acetyltransferase KAT6A, winged helix 2, GST fusion (KAT6A, Homo sapiens, UniProt Q92794, residues 85-181)
# Notes: 8-mer, flanks averaged, mean of 2 arrays, mostly near background
# Target sequence (chain): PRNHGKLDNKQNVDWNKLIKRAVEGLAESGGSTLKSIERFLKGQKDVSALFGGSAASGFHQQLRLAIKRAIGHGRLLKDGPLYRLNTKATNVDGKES
Strand,E-score
AGCCGTAA,-0.0199
ACCAAATC,0.00071
AATAGAAA,-0.0101
GGAGTTTA,0.0258
AACATCTA,-0.238
CTGGCAAC,0.0119
AGCACACC,-0.055
CTTACACA,-0.092
AGCGGCCC,-0.0181
CAGCGCTA,0.0681
CATCAGTA,-0.191
CTAGAATC,-0.038
CACATATG,-0.187
GTTGTGCA,-0.0638
CACTGGAA,0.0147
CGCCACTC,0.0563
ACACGTCG,-0.122
ACGCCTCG,0.0803
CGTCTGCA,0.0416
ACTATGGG,-0.144
ACAAATAT,-0.00451
AAATCTCC,-0.0425

# Series 4 — organism: Saccharomyces cerevisiae; read-out: binding; technique: competitive growth deep sequencing; form: peptide; strain: cyclin D3-Cln2 fusion strain; tested at: concentration not given; notes: peptide tiling library; reading: direction not given
Molecule,growth enrichment score
ISRLFPPRTPGWHQLQ,-0.619
NLEPNAEFDKRTEFIT,0.686
KVRRNLFNQELLSP,-0.911
ATNSSHTDAHEILVSD,-0.232
EHCRVLFLDHVMYTIH,0.274
VSRNLRSSLKSSLHTL,-1.3
GPVKLEFDVSDGAT,-0.0508
NRLLKLFTRCLTPLVP,-1.05
PPTFLSTGEIHAFLSS,0.334
SPREGHMMDALYAQVK,0.778
AGSAKRRLFGEDPPKE,0.00694
ELGMEHCEKFEISETS,0.347
YLYLLLTQSLWCRV,0.103

# Repeated from above (series 2):
Strand,RBNS enrichment (R)
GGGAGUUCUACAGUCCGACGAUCCUUUUAAAAUUUUAAGAUAGGAAAGAAAUCUAUAGAAAGUGUUCUGUUACAAAAUGUAACUGUUACCAUUGGAAAUUUCACAUGUCAAAGGAGGUUAGCCGUUAUUUACCUGGAAUUCUCGGGUGCCAA,0.362
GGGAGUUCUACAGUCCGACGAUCACUUUAGAGCUAGGAUGAGGGCACCUCUCCUCCUCCAUGGAUCACCAAGGGGGCUCUUGCAUUGAGCAAUAUUGCCUUAUUUACUUUAGGGCACAAGCCAAGUCUUCAUGUGGAAUUCUCGGGUGCCAA,0.271
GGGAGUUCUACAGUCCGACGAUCGAGGGAAGUUUGGCUAAUGGGCUGAUCGAAUGAGCUAACAUGGGCUGGGGCAGGCAACUACCCGUCCUCAAGCCCGCUGUUUCUGUCUCCCUACCAGACAGGCCUCUGGGUGGAAUUCUCGGGUGCCAA,0.299
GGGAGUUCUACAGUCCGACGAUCGAUUCUCAGGGAGCCCUCUGUGGCCUUUUGCUUUGCGUGCUGUUUCCCUUGUACCAGAGGGCGGCACCGUGGAAAUUCUGUUUUCCCUGUAGCAUAUUGUGUUGGAUUGCUGGAAUUCUCGGGUGCCAA,0.383
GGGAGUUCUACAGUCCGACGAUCUUGCCUUAUGCUGAGGUCAAACUAAGGAUAAGCAAGCUUUUGUCCUUCAUUUUAACUGUUAUGUCAUACUGUUAUGUUGACAUAUUUCUUUAUAAGAGAAUAGAGGCAAAUGGAAUUCUCGGGUGCCAA,1.07
